# Assay results gathered from unrelated publications.
# Protocols differ between the studies behind these lines. ± marks the error that the study gave.
Molecule,tested on,assay,test system,setting,scale,endpoint,value
CC(C)[C@H](NC(=O)[C@@H]1CCCN1C(=O)[C@H](CCCNC(=N)N)NC(=O)[C@H](CS)NC(=O)[C@H](Cc1c[nH]c2ccccc12)NC(=O)[C@H](CCCNC(=N)N)NC(=O)[C@@H](Cc1ccccc1)NC(=O)[C@H](Cc1c[nH]cn1)NC(=O)[C@H](CCC(=O)O)NC(=O)[C@H](CS)NC(=O)[C@H](CS)NC(=O)[C@H](CCCCN)NC(=O)[C@@H]1CC(=O)N[C@@H](CCCNC(=N)N)C(=O)N[C@@H](C)C(=O)N[C@@H](CC(=O)O)C(=O)N[C@H](Cc2ccc(O)cc2)C(=O)N1)C(N)=O [technetium-99m labelled],,,"C57 mice, bladder","iv, 0.037 MBq, 0.5 h",,tissue uptake,30.9 ± 5.12 %ID
CSCC[C@H](NC(=O)[C@H](CC(C)C)NC(=O)[C@H](Cc1c[nH]cn1)NC(=O)CNC(=O)[C@@H](NC(=O)[C@H](C)NC(=O)[C@H](Cc1c[nH]c2ccccc12)NC(=O)[C@H](CCC(N)=O)NC(=O)CCCCCNC(=O)[C@H](CCC(=O)NCCCC[C@@H]1NC(=O)[C@@H](Cc2ccc(O)cc2)NC(=O)[C@H](CC(=O)O)NC(=O)CNC(=O)[C@H](CCCNC(=N)N)NC1=O)NC(=O)CN1CCN(CC(=O)O)CCN(CC(=O)O)CC1)C(C)C)C(N)=O [copper-64 labelled],,,"ICR SCID mouse, female, spleen","intravenous, 750 kBq, 1 h",,tissue uptake,0.96 ± 0.21 %ID/g
N#Cc1c(-c2ccccc2)[nH]c2ccccc12,HEK293,cell growth or viability,,50 µM,,viability,91.4%
Insulin human,,ELISA,"rat, striatum","intranasal, 20 µg per nostril, 15 min",,concentration,198 ± 101 pg/mg tissue
Cc1ccc(-c2cc3ccccc3[nH]2)cc1,HEK293,cell growth or viability,,50 µM,,viability,86.6%
C#C[C@]1(COP(=O)(O)OP(=O)(O)OP(=O)(O)O)O[C@@H](n2cnc3c(N)nc(F)nc32)C[C@@H]1O,human PBMC tumour model,,"host not given, plasma","oral, 200 mg, single dose, fasted",,Tmax,6 h
COc1cccc2c1C(=O)c1c(O)c3c(c(O)c1C2=O)C[C@@](O)(C(=O)CO)C[C@@H]3O[C@H]1C[C@H](NC(=O)[C@@H]2CCCN2C(=O)CN)[C@H](O)[C@H](C)O1,,,"mouse, E0771 tumour-bearing, heart","intravenous, 92 µmol/kg PhAc-ALGP-Dox",,terminal half-life,7 h
insulin lispro,,,"human, plasma",subcutaneous pump,,time to 95% clearance,6.3 h
CC(C)[C@H](NC(=O)[C@@H]1CCCN1C(=O)[C@H](CCCNC(=N)N)NC(=O)[C@H](CS)NC(=O)[C@H](Cc1c[nH]c2ccccc12)NC(=O)[C@H](CCCNC(=N)N)NC(=O)[C@@H](Cc1ccccc1)NC(=O)[C@H](Cc1c[nH]cn1)NC(=O)[C@H](CCC(=O)O)NC(=O)[C@H](CS)NC(=O)[C@H](CS)NC(=O)[C@H](CCCNC(=N)N)NC(=O)[C@@H]1CC(=O)N[C@@H](CCCNC(=N)N)C(=O)N[C@@H](C)C(=O)N[C@@H](CC(=O)O)C(=O)N[C@H](Cc2ccc(O)cc2)C(=O)N1)C(N)=O [technetium-99m labelled],,,"C57 mouse, urinary bladder","intravenous, 0.037 MBq, 4 h",,tissue uptake,80.2 ± 2.77 %ID
rnpA F107W (Bacillus subtilis),,"NMR, measured: His3",,"25 °C, 0.15 M NaCl, sulfate-bound folded state, added: 20 mM Na2SO4",,pKa,6.16
insulin degludec,,,"human, moderate hepatic impairment, serum","subcutaneous, 0.4 U/kg single dose",,AUC(0-120 h),0.0889 µM·h
insulin,,measured: plasma glucose,"rat, streptozotocin-induced diabetes","oral, 20 IU/kg",relative to: subcutaneous dose 1 IU/kg,relative bioavailability,< 0.5%
insulin degludec,,insulin degludec-specific ELISA,"healthy human subjects, serum","subcutaneous, deltoid, 0.4 U/kg",,AUC(0-120 h),0.0811 µM·h

# Repeated from above:
Molecule,tested on,assay,test system,setting,scale,endpoint,value
CC(C)[C@H](NC(=O)[C@@H]1CCCN1C(=O)[C@H](CCCNC(=N)N)NC(=O)[C@H](CS)NC(=O)[C@H](Cc1c[nH]c2ccccc12)NC(=O)[C@H](CCCNC(=N)N)NC(=O)[C@@H](Cc1ccccc1)NC(=O)[C@H](Cc1c[nH]cn1)NC(=O)[C@H](CCC(=O)O)NC(=O)[C@H](CS)NC(=O)[C@H](CS)NC(=O)[C@H](CCCCN)NC(=O)[C@@H]1CC(=O)N[C@@H](CCCNC(=N)N)C(=O)N[C@@H](C)C(=O)N[C@@H](CC(=O)O)C(=O)N[C@H](Cc2ccc(O)cc2)C(=O)N1)C(N)=O [technetium-99m labelled],,,"C57 mice, bladder","iv, 0.037 MBq, 0.5 h",,tissue uptake,30.9 ± 5.12 %ID
